Assay results from different studies.
Every numbered part comes from another study and shows a few of its results, in no order.

Sample 1
Target: Histone acetyltransferase KAT6A, winged helix 2, GST fusion (KAT6A, Homo sapiens, UniProt Q92794, residues 85-181)
Technique: protein binding microarray
Molecule type: double-stranded DNA, one strand shown
Matrix: in vitro
Tested at: not given
Notes: 8-mer, flanks averaged, mean of 2 arrays, mostly near background
Relative to: not given
Direction: higher = stronger binding
Residues (chain): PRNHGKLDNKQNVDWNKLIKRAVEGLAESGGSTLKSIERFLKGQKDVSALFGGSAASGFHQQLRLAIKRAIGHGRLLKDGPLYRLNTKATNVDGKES
The E-score of `ATGTAGCG` is reported as -0.0605.
With `ACAACACC` the E-score was -0.0848.
`CTGACGCA` gave an E-score of -0.0699.
With `TAGAGCTA` the E-score was -0.139.
`ACGGTGAT` gave an E-score of -0.0645.
The E-score of `ACCACCCT` is reported as -0.162.
With `CACCCAAA` the E-score was 0.0434.
The E-score of `CGTCCCGC` is reported as 0.295.
`GTGAACGA` has an E-score of 0.079.
`ACCGAAAT` gave an E-score of -0.0575.
The E-score of `AGCACACC` is reported as -0.055.
The E-score of `ATCTACAT` is reported as -0.0388.
The E-score of `CCACGAAC` is reported as 0.17.
With `ACCAAATC` the E-score was 0.00071.
With `CCCGCGAG` the E-score was 0.186.
`TCACAAAA` has an E-score of 0.0602.
The E-score of `ACCTGGGG` is reported as -0.0725.
The E-score of `ACAAGTCG` is reported as -0.0472.

Sample 2
Target: Prothrombin, mature alpha-thrombin (F2, Homo sapiens, UniProt P00734)
Technique: aptamer microarray, sandwich
Molecule type: DNA with 2'F-ANA
Matrix: in vitro
Tested at: 200 nM
Notes: whole 15-mer aptamer, many near background
With: Cy3 exosite-II aptamer, 400 nM
Direction: higher = stronger binding
Sequence: GGTTGGTGTGGTTGG
Under “mean fluorescence intensity”, `2'F-ANA at 1 4 7 14` is recorded as 67.5 a.u.
`2'F-ANA at 8 13 15` — result for “mean fluorescence intensity”: 518 a.u.
For `2'F-ANA at 3 4 9 10 13 14`, “mean fluorescence intensity” read 194 a.u.
`2'F-ANA at 1 3 4 5 6 7 8 9 13 14`: “mean fluorescence intensity” 54.3 a.u.
Under “mean fluorescence intensity”, `2'F-ANA at 1 2 3 5 7 8 9 14` is recorded as 50.4 a.u.
`2'F-ANA at 1 4 5 6 9 10 11`: “mean fluorescence intensity” 46.7 a.u.
`2'F-ANA at 2 5 6 7 9 10 11 12 14 15` — result for “mean fluorescence intensity”: 51.2 a.u.
Under “mean fluorescence intensity”, `2'F-ANA at 1 8 9 11 12 14 15` is recorded as 71 a.u.
`2'F-ANA at 11 12 13`: “mean fluorescence intensity” 659 a.u.
For `2'F-ANA at 1 2 4 6 7 10 13 14`, “mean fluorescence intensity” read 49.8 a.u.
For `2'F-ANA at 2 3 4 5 6 7 8 9 13 15`, “mean fluorescence intensity” read 74.3 a.u.
`2'F-ANA at 3 4 5 6 8 9` — result for “mean fluorescence intensity”: 123 a.u.
`2'F-ANA at 1 3 5 7 8 9 10 11 12 13 14 15`: “mean fluorescence intensity” 78.9 a.u.
`2'F-ANA at 1 3 5 7 8 9 11 13 14`: “mean fluorescence intensity” 47.7 a.u.
`2'F-ANA at 1 2 3 4 5 6 7 9 14` — result for “mean fluorescence intensity”: 48.4 a.u.
`2'F-ANA at 2 4 6 8 11 12 13`: “mean fluorescence intensity” 328 a.u.
For `2'F-ANA at 1 8 12 15`, “mean fluorescence intensity” read 474 a.u.
`2'F-ANA at 4 7 9 13`: “mean fluorescence intensity” 175 a.u.
Under “mean fluorescence intensity”, `2'F-ANA at 1 2 3 10 11` is recorded as 75.4 a.u.
`2'F-ANA at 5 9 10 11 13 14`: “mean fluorescence intensity” 44.2 a.u.
Under “mean fluorescence intensity”, `2'F-ANA at 1 2 3 4 7 9 10 14` is recorded as 50.9 a.u.
`2'F-ANA at 1 2 3 4 5 7 9 10 15`: “mean fluorescence intensity” 49.6 a.u.
`2'F-ANA at 4 5 8 9 11 12 13` — result for “mean fluorescence intensity”: 76.2 a.u.
For `2'F-ANA at 3 4 5 7 8 10 13 14`, “mean fluorescence intensity” read 47.3 a.u.
`2'F-ANA at 3 5 6 9 10 11 12 14` — result for “mean fluorescence intensity”: 48.9 a.u.

Sample 3
Target: RING finger protein unkempt homolog, zinc fingers 1-6, GST-SBP tag (UNK, Homo sapiens, UniProt Q9C0B0, residues 30-357)
Sequence of UniProt Q9C0B0 (30-357, looked up): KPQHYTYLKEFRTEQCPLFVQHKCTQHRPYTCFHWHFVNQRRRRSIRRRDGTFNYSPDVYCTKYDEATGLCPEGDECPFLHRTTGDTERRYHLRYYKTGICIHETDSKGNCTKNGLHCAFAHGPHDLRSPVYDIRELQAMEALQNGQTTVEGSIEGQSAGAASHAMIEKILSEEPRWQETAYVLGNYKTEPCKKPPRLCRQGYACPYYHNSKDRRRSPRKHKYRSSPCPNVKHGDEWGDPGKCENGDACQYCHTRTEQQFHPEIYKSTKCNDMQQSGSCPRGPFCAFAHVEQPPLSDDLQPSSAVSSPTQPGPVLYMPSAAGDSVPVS
Technique: RNA Bind-n-Seq
Molecule type: RNA
Matrix: in vitro
Tested at: not given
Notes: RNA with constant flanks, human-mouse chimeric sites, ends assumed
Relative to: input RNA pool
Direction: higher = stronger binding
Constant ends, left off below: GGGAGUUCUACAGUCCGACGAUC … CAACAGAGGAUUGAGCAUCA
`AGAGAUAAGACAUCCAGAAAUAUGAGAGGCUCCCGGAUGAAUGGGUUGCCUAGCCCCACUCACAGCGCCCACUGUAGCUUCUACCGAACCAGAACCUUGCAGGCAUUGAGUAAUGAGAAG` gave a bound/input enrichment of 0.251 ratio.
The bound/input enrichment of `CUGGCACUCUAUCAGAUAGAUUACUUUUUUAAUGUAGAUGUAAUUUUAAAAAUGAAUGGCUACUUUACACGUUUAACUAGGGUUUUACUAUAUAUGUGUACAUAUGUAUAUGUAUUUAUA` is reported as 22.1 ratio.
With `AAAGGCAAAAAGGGCAGCUGUGUCAUUUCAUAAGUAACUCUGGGGGAGGGAAAUUCUAACUAGUUUGUUAAUUUUCCCCCAAAUGAAGCCAAAGUGUGUGUUGAAGAACUGAGAAAAAAU` the bound/input enrichment was 0.661 ratio.
With `CAGCCUCAGAGCCCAGACUUCCUGGACAUUACCAACCCUAAAGCGGUAUUAGAAAAUGCACUUAGGAACUUCGCCUGUCUGACGACUGGAGAUGUGAUUGCUAUCAACUACAAUGAGAAG` the bound/input enrichment was 0.587 ratio.
`GCGGCAGAAUCAUGGAGGACAUAAUGCAGCUCCCCAAGUCGCGCAUCAACGCCAGCAUGUUACCACAGUAUAUCGACAAGCCUGUCUGCUUCGUGGGGAAGCUGGAAAAGAUUCAUCCCA` has a bound/input enrichment of 0.102 ratio.
For `CAGCCUCAGAGCCCAGACUUCCUGGAUAUUACCAACCCCAAAGCCGUAUUAGAAAAUGCAUUGAGAAACUUUGCCUGUCUGACGACUGGAGAUGUGAUUGCUAUCAACUACAAUGAGAAG`, the bound/input enrichment was 0.42 ratio.
With `GGUGGGGGGUUGUCAUUCGUUUGAGCUGCUGAUUUUCAUGAGUCGCCUUCAAAACUCUCGUGUAGGGUUGACAAUGUGGGGGGGUGGGGGAUCCAGCUAUUUUUUUUAUUUUCAAGUCCA` the bound/input enrichment was 2.6 ratio.
`AUCAAGUACUUUGGGGACAUCAUUAGUGUGGGACAGAGACUGUUGCAAGGAGCUCGGAUCUUAGGGAUUCCAGUUAUCAUAACGGAACAAUACCCCAAAGGACUUGGGAGCACGGUUCAA` gave a bound/input enrichment of 0.219 ratio.
With `GGAAGUACAAUGAUGGAGAUUGAUGGUGAUAAAGGCAAGCAGGGCGGUCCCACCUACUACAUAGACACCAAUGCCCUCCGCGUGCCCAGGGAGAACAUGGAGGCCAUCUCACCACUCAAG` the bound/input enrichment was 0.219 ratio.
The bound/input enrichment of `CUCUUUGAAUCAUUCAAGAGUUUUGAAGGUCUCUUUUAUUUUCUGGGAUCCAUUGUUAACUUUAGUCAGGACCCAGAUGUGCACUUUAAAUAUAUUCAGGCGGCUUGCAAGACUGGGCAA` is reported as 0.883 ratio.
With `GCCACCAGAUCCCAGAAACAUGACUCUUGCUGCCUACAAAGAGAAGAUGAAGGAGCUCCCGCUGGUGUCUCUGUUCUGCUCCUGCUUCCUGGCCGAUCCCCUGAAUAAGUCGUCCUACAA` the bound/input enrichment was 0.32 ratio.

Sample 4
Target: Sal-like protein 4, full length isoform B (SALL4, Homo sapiens, UniProt Q9UJQ4-2, residues 1-616)
Technique: universal PBM
Molecule type: double-stranded DNA, one strand shown
Matrix: in vitro
Tested at: not given
Notes: 8-mer, flanks averaged, mean of replicates
Direction: higher = stronger binding
Construct (chain): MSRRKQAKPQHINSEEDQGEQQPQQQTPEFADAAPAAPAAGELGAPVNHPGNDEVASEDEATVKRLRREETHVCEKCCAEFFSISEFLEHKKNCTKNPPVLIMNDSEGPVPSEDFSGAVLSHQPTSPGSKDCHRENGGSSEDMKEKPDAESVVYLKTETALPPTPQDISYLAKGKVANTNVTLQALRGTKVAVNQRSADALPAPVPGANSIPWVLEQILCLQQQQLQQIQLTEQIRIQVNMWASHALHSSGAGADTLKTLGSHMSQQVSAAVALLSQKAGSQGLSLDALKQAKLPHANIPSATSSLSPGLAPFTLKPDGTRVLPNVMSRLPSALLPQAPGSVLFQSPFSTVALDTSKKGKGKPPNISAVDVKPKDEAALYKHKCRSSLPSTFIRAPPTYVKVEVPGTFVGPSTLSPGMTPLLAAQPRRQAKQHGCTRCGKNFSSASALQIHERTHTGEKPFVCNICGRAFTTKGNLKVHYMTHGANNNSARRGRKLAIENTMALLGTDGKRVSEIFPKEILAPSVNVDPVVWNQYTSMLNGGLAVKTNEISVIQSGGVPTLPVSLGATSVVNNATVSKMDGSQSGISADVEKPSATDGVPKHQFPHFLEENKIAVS
With `AAGATGGA` the E-score was 0.0335.
`CAGCCACG` gave an E-score of -0.151.
`ACAGGATG` gave an E-score of 0.0362.
`GGGTACCC` gave an E-score of -0.293.
The E-score of `ATGATCGG` is reported as 0.103.
The E-score of `AAGGTCTA` is reported as -0.024.
With `GCGACATA` the E-score was 0.113.
For `CTCGCACA`, the E-score was -0.0575.
`AGTAGGGG` has an E-score of -0.0556.
`CATTGTAA` gave an E-score of 0.19.
With `ACGAGTGG` the E-score was -0.0311.
For `TCAAGGAA`, the E-score was 0.0542.
`CCACGTCG` has an E-score of -0.226.
`ACCTCGTA` gave an E-score of 0.14.
`ACGGGACT` gave an E-score of -0.131.
For `CATCGAAA`, the E-score was 0.0863.

Sample 5
Target: Centromere-binding protein 1, full length, N-terminal tag (CBF1, Saccharomyces cerevisiae, UniProt P17106, residues 1-351)
Sequence of UniProt P17106 (whole entry, looked up): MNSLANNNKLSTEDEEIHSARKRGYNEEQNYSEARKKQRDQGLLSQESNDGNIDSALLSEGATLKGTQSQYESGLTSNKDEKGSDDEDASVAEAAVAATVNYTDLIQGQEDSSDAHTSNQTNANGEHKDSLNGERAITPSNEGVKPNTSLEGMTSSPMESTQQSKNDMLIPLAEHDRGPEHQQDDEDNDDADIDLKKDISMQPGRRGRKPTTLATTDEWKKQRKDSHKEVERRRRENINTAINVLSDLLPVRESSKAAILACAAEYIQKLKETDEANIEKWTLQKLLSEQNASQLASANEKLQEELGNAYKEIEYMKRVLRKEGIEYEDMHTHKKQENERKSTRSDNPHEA
Technique: protein-binding microarray
Molecule type: double-stranded DNA, one strand shown
Matrix: in vitro
Tested at: 0.8 µM
Notes: whole 60-bp probe, no competitor
Direction: higher = stronger binding
Constant ends, left off below: … GTCTTGATTCGCTTGACGCTGCTG
With `CTATTTGTAGTATTGAACGTGACAGGAAACAAATTC` the fluorescence intensity was 1830 a.u.
For `CTACGCAACTTAAGCCACACCACGTAATTCTTGTTC`, the fluorescence intensity was 536 a.u.
For `TGTACGAAGCTATAGCACATGATTATAGTAGTTAGG`, the fluorescence intensity was 1250 a.u.
With `CTAGTACCTCTAGTTTTGGTGATGAAGCAAGACTTC` the fluorescence intensity was 507 a.u.
`GAAGCTCGCACTGCGCAGGTGACGGTAAAGAAATAG` has a fluorescence intensity of 882 a.u.
The fluorescence intensity of `CTATAGTAACTACGTAAATCACCTGCTACCTCTTTC` is reported as 1270 a.u.
With `CTAATATATATGACGAATGTGACCAACATAAGTTTC` the fluorescence intensity was 678 a.u.
`GAAGGCAAAACGACCCACGTGGCAGAGTTGGGTTAG` gave a fluorescence intensity of 4670 a.u.
With `CTAACGAAACACAACCACGTTCTTAAATCTCGATTC` the fluorescence intensity was 625 a.u.
The fluorescence intensity of `CTACCAGTATACCGTCACATGCGGTGTAACGTGTTC` is reported as 2100 a.u.
The fluorescence intensity of `CCTAACTACTATATACACGTGGAATAGCTTCGTACA` is reported as 1810 a.u.
`CTATTCCACCTTTGTCAGCTGTTCTGTTCCTATTTC` has a fluorescence intensity of 687 a.u.
The fluorescence intensity of `GAAACAGTTATTTTTCATGTGTTATGTTTTTCATAG` is reported as 599 a.u.
The fluorescence intensity of `GAATACTCTATACAGCTGATAAACTCTGTCTAATAG` is reported as 556 a.u.
The fluorescence intensity of `CTAAGTTTTTAGAACCTCGTGGTGAGGAGTGTTTTC` is reported as 615 a.u.
The fluorescence intensity of `CTAAAATATCGCAAGCACGTTTTTACTCAGCCCTTC` is reported as 693 a.u.
`CCTAACTACTATAATAACGTGAAATAGCTTCGTACA` has a fluorescence intensity of 612 a.u.
`CTATTTCTTTACCGTCATGCACGTGCGCCGCGATTC` gave a fluorescence intensity of 11700 a.u.
`CTAGGCATAAAGAGGCACATGCGTCGTTTGTAGTTC` gave a fluorescence intensity of 699 a.u.
For `CTAAAACAGAGCAGTCATATGATCAAAATAAAGTTC`, the fluorescence intensity was 2590 a.u.
`CTACACACCCACACCCACACCACACCCACACCCTTC` has a fluorescence intensity of 517 a.u.
`CTATTATTTTTAGAACGTGTGACAAAGTTGTTTTTC` gave a fluorescence intensity of 672 a.u.

Some of these lines once more (sample 5):
With `CTAGTACCTCTAGTTTTGGTGATGAAGCAAGACTTC` the fluorescence intensity was 507 a.u.
`GAAGCTCGCACTGCGCAGGTGACGGTAAAGAAATAG` has a fluorescence intensity of 882 a.u.
The fluorescence intensity of `CTATAGTAACTACGTAAATCACCTGCTACCTCTTTC` is reported as 1270 a.u.
With `CTAATATATATGACGAATGTGACCAACATAAGTTTC` the fluorescence intensity was 678 a.u.
`GAAGGCAAAACGACCCACGTGGCAGAGTTGGGTTAG` gave a fluorescence intensity of 4670 a.u.
